Assay results pooled from the literature.
Numbered parts are unrelated; each lists some results of a single study. Several values in a cell are separate wells, animals, samples, runs or records.
Chain of UniProt Q9UK32 (whole entry, looked up): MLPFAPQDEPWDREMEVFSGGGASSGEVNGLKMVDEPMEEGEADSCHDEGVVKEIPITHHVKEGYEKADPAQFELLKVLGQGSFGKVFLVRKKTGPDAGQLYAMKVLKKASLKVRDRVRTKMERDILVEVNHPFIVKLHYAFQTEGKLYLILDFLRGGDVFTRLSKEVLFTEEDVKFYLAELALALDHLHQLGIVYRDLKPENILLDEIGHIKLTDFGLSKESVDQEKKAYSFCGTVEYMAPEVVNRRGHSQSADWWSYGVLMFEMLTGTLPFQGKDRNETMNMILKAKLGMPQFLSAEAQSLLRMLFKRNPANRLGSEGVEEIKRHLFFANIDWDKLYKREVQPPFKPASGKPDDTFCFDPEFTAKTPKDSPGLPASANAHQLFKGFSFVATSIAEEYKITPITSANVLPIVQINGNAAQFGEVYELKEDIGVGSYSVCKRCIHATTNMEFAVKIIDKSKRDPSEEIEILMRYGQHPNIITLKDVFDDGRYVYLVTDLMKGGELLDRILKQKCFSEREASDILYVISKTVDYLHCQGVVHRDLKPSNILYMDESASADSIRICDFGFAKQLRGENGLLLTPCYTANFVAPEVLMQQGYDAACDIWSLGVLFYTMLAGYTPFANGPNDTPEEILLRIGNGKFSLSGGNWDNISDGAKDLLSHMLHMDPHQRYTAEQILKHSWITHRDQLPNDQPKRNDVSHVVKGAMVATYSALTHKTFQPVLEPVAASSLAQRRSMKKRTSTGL
Chain of UniProt O60331 (whole entry, looked up): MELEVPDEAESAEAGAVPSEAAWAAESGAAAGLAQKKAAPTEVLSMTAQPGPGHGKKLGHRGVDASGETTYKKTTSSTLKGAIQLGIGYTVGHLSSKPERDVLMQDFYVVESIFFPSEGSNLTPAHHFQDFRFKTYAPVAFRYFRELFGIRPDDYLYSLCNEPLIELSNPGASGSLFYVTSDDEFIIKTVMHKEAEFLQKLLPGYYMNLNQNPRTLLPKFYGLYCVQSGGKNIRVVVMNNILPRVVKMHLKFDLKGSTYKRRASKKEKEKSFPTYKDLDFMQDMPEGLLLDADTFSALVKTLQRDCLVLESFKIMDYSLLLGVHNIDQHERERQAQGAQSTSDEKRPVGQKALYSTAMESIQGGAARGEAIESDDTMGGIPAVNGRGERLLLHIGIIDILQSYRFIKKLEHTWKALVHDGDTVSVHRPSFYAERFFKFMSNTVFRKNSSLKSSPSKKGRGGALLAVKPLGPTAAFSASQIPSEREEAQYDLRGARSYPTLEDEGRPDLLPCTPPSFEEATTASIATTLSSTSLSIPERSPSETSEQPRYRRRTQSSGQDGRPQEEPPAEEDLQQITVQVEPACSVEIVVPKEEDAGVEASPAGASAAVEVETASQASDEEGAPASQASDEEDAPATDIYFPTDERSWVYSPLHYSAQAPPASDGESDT
Chain of UniProt Q9BX84 (whole entry, looked up): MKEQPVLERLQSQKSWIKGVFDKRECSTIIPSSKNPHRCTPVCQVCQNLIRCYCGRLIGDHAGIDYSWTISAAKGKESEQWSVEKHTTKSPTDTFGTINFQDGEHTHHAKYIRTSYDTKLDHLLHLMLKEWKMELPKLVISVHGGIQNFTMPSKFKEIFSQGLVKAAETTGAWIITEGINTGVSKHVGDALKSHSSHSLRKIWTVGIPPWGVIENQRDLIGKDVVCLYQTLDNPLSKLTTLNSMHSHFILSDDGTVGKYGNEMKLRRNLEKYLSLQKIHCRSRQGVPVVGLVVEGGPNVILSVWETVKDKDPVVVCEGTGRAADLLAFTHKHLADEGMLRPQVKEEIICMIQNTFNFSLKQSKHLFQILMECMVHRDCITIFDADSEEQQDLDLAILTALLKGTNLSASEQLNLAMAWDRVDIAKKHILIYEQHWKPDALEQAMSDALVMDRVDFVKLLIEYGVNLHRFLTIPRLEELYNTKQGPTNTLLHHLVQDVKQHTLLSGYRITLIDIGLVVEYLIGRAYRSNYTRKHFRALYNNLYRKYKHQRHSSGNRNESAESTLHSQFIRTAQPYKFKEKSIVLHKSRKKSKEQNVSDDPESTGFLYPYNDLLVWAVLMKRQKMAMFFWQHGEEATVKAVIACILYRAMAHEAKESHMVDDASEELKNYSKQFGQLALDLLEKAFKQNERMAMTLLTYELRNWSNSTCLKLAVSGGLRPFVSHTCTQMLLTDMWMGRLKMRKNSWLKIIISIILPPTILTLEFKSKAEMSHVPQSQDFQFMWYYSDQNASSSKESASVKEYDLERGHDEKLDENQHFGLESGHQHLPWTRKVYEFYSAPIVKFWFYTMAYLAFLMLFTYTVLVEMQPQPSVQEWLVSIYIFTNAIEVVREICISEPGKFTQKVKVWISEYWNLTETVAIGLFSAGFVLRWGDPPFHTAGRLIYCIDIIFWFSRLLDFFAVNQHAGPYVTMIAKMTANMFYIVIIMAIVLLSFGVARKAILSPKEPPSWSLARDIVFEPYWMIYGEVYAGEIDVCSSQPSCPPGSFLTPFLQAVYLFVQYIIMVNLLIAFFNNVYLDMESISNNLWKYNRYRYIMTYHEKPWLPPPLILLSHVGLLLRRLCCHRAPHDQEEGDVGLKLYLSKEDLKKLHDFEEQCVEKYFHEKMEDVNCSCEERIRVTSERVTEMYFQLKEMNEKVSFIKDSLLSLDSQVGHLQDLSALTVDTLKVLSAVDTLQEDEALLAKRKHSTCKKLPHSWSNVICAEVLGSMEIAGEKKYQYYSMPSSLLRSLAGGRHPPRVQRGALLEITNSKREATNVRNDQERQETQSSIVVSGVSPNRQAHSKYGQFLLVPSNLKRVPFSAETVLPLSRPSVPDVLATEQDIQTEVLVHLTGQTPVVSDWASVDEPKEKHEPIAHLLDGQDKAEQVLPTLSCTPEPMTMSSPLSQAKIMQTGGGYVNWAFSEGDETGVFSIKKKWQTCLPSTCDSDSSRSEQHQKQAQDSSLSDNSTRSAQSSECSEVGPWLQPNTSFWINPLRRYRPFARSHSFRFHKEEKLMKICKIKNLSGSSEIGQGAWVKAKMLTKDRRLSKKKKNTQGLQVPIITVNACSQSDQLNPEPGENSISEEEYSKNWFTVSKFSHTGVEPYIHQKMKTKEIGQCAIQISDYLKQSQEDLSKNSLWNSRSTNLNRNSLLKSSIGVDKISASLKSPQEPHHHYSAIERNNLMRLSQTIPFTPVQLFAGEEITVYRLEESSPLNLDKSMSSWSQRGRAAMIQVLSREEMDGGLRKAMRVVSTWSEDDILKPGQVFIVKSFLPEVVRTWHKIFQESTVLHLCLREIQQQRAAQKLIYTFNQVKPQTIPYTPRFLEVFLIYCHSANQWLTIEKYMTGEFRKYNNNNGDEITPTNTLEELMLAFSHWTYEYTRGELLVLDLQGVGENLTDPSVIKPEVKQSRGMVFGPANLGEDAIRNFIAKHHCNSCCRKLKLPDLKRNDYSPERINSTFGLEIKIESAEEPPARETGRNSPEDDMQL
Chain of UniProt Q92630 (whole entry, looked up): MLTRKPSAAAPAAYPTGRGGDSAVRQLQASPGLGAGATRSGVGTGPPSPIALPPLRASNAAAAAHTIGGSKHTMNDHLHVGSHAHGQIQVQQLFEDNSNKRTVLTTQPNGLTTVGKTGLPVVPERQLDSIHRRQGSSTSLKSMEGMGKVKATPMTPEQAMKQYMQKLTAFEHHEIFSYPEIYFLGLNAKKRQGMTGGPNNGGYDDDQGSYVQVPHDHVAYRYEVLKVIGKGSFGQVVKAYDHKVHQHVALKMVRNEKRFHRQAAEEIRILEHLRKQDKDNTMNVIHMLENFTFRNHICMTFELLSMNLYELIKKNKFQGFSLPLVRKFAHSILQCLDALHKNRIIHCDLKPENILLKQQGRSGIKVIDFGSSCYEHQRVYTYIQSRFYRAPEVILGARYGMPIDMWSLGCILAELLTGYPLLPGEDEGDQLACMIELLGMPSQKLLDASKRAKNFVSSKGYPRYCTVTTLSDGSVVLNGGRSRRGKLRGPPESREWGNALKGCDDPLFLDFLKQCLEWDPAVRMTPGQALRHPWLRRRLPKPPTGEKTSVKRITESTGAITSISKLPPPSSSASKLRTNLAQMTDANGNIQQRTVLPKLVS

Sample 1
Target: Mast/stem cell growth factor receptor Kit (KIT, Homo sapiens, UniProt P10721)
Chain of UniProt P10721 (whole entry, looked up): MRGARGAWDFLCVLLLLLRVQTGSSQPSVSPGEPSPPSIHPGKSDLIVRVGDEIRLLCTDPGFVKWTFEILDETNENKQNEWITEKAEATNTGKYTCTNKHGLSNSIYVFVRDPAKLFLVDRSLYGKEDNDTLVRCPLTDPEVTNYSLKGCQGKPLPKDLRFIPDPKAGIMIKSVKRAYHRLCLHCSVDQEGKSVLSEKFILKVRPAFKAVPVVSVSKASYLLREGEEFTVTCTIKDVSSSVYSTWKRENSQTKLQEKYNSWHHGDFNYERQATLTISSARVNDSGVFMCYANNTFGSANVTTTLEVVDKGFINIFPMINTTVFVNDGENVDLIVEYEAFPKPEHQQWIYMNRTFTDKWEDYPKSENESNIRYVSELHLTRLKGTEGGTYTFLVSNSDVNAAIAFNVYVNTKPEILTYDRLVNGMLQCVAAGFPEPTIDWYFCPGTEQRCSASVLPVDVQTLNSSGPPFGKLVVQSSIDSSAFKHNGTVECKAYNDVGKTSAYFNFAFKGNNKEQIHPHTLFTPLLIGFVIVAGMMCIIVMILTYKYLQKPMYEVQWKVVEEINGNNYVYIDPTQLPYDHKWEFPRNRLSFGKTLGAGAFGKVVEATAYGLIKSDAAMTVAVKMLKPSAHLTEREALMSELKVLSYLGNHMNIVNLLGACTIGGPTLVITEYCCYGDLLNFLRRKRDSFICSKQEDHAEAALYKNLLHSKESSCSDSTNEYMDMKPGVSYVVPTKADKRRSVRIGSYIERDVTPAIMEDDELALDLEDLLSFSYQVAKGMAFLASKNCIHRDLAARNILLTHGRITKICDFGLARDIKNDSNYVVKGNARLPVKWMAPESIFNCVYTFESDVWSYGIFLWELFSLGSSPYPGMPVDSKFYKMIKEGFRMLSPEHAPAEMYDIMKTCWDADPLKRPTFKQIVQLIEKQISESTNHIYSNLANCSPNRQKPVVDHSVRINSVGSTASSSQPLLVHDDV
Read-out: enzyme activity
Mode: inhibitor
Concentration: 0.5 µM
Baseline: control
Compound	remaining activity
CCN(CC)CCNC(=O)c1c(C)[nH]c(/C=C2\C(=O)Nc3ccc(F)cc32)c1C	8.74%
Cc1cc2ncc(-c3ccccc3)nc2cc1C	63.5%
c1ccc(-c2[nH]ncc2-c2ccnc3ccccc23)nc1	93.5%
Cc1cn(-c2cc(NC(=O)c3ccc(C)c(Nc4nccc(-c5cccnc5)n4)c3)cc(C(F)(F)F)c2)cn1	55.2%
c1ccc(-c2cnc(Nc3ccc(OCCN4CCCC4)cc3)s2)cc1	20.3%
CCN(CC)CCNC(=O)c1c(C)[nH]c(/C=C2\C(=O)Nc3ccc(Cl)cc32)c1C	28.7%
O=C1C(Cl)=C(N2C(=O)CCC2=O)C(=O)c2ccccc21	84.7%
CN(C)C[C@H]1CCn2c(c(C3=C(c4cn(C)c5ccccc45)C(=O)NC3=O)c3ccccc32)C1	92.7%
O=C(Nc1cccc(Nc2nccc(Nc3cccc(C(F)(F)F)c3)n2)c1)C1CC1	86.1%
COc1cc2c(cc1OC)-c1[nH]nc(Nc3cccc(F)c3)c1C2	27.9%
CCN(CC)C(=O)c1ccc(Nc2nc(OCC3CCCCC3)c3[nH]cnc3n2)cc1	40.7%
Nc1cccc(-c2cc3c(Oc4cccc(O)c4)ncnc3[nH]2)c1	35.1%
N#Cc1c(NC(=O)c2cccc3ccccc23)sc2c1CCCC2	84.2%
Cc1nc2cc3nc(-c4cccs4)cnc3cc2n1C	40.4%
N#C/C(=C\c1ccc(O)c(O)c1)C(=O)NCc1ccccc1	93.9%
Cn1nc2c3c(cccc31)C(=O)c1ccccc1-2	86.4%
COc1cc2ncnc(Nc3cccc(Cl)c3)c2cc1OC	94%
CCOc1nc(NC(=O)Cc2cc(OC)ccc2OC)cc(N)c1C#N	84.6%
O=C(NC(NC(=S)Nc1ccc(F)c([N+](=O)[O-])c1)C(Cl)(Cl)Cl)C(c1ccccc1)c1ccccc1 (centres unmarked)	97.2%
CN([C@@H](Cc1ccc(OS(=O)(=O)c2cccc3cnccc23)cc1)C(=O)N1CCN(c2ccccc2)CC1)S(=O)(=O)c1cccc2cnccc12	96.3%
COc1cc2ncnc(Nc3ccc(O)c(Br)c3)c2cc1OC	97.3%
Ic1cccc(CSc2nnc(-c3ccncc3)o2)c1	99.8%
O=C1c2ccccc2-c2n[nH]c3cccc1c23	81.9%
O=c1cc(-c2cccc3c2Sc2ccccc2S3)oc(N2CCOCC2)c1	96.8%

Sample 2
Cell line: mouse MPNST tumor cells
Technique: high-content immunofluorescence imaging
Item: nuclear SOX9
Concentration: 10 µM
Time: 12 h
Setting: mean of 2 replicates
Baseline: DMSO control
Direction: higher = more nuclear SOX9
Compound	nuclear SOX9 intensity
CCOc1ccc(NC(C)=O)cc1	102 % of DMSO
O=C(NCCO[N+](=O)[O-])c1cccnc1	98.1 % of DMSO
CCC1(c2ncc[nH]2)Cc2ccccc2O1 (centres unmarked)	98.2 % of DMSO
Cc1c(C(=O)NCc2cccnc2)nn(-c2ccc(Cl)cc2Cl)c1-c1ccc(Cl)cc1	105 % of DMSO
CCN1CC(CCN2CCOCC2)C(c2ccccc2)(c2ccccc2)C1=O (centres unmarked)	92.7 % of DMSO and 100 % of DMSO
CCC1=C(C)CN(C(=O)NCCc2ccc(S(=O)(=O)NC(=O)N[C@H]3CC[C@H](C)CC3)cc2)C1=O	98 % of DMSO
CC(C)N(CCCNC(=O)Nc1ccc(C(C)(C)C)cc1)C[C@H]1O[C@@H](n2ccc3c(N)ncnc32)[C@H](O)[C@@H]1O	96.7 % of DMSO
OCc1ccc(-c2nn(Cc3ccccc3)c3ccccc23)o1	112 % of DMSO
Fc1ccccc1CNCc1ccc(-c2ccnc3[nH]ccc23)cc1	89.7 % of DMSO
Cc1cccc(C#Cc2ccccc2)n1	93.3 % of DMSO

Sample 3
SMILES: FC(F)(F)c1ccc2c(c1)nc(-c1cccnc1)n2C1CC1
Read-out: cell-free assay
Technique: competition with immobilised ligand
Concentration: 1 µM
target	remaining binding [%]
Tyrosine-protein kinase ABL1, phosphorylated (ABL1, Homo sapiens, UniProt P00519, H396P)	100
Mast/stem cell growth factor receptor Kit, autoinhibited (KIT, Homo sapiens, UniProt P10721)	85
eIF-2-alpha kinase GCN2, C-terminal kinase domain (EIF2AK4, Homo sapiens, UniProt Q9P2K8, S808G)	93
Ribosomal protein S6 kinase alpha-6, N-terminal kinase domain (RPS6KA6, Homo sapiens, UniProt Q9UK32)	100
LRRK2 (Homo sapiens, UniProt Q5S007)	100
PRKAA1 (Homo sapiens, UniProt Q13131)	100
PRKCQ (Homo sapiens, UniProt Q04759)	100
NTRK3 (Homo sapiens, UniProt Q16288)	100
DCLK1 (Homo sapiens, UniProt O15075)	84
PIP4K2C (Homo sapiens, UniProt Q8TBX8)	100
CHEK2 (Homo sapiens, UniProt O96017)	100
MARK1 (Homo sapiens, UniProt Q9P0L2)	100
DYRK2 (Homo sapiens, UniProt Q92630)	100
PIP5K1C (Homo sapiens, UniProt O60331)	85
CAMK1G (Homo sapiens, UniProt Q96NX5)	100
TRPM6 (Homo sapiens, UniProt Q9BX84)	100
STK17A (Homo sapiens, UniProt Q9UEE5)	100

Further values, each from its own experiment
Cell line: A-375
Concentration: 100 µM
Time: 60 h
Structure (SMILES)	viability [%]
CCCCCCCCCC[C@H](C(=O)O)[C@]1(C(=O)O)CCC(=O)O1	105
Cc1cc(-c2ccc(/N=N/c3ccc4c(S(=O)(=O)O)cc(S(=O)(=O)O)c(N)c4c3O)c(C)c2)ccc1/N=N/c1ccc2c(S(=O)(=O)O)cc(S(=O)(=O)O)c(N)c2c1O	108

For quick reference, copied from above (sample 2):
Compound	nuclear SOX9 intensity
CC(C)N(CCCNC(=O)Nc1ccc(C(C)(C)C)cc1)C[C@H]1O[C@@H](n2ccc3c(N)ncnc32)[C@H](O)[C@@H]1O	96.7 % of DMSO
Cc1c(C(=O)NCc2cccnc2)nn(-c2ccc(Cl)cc2Cl)c1-c1ccc(Cl)cc1	105 % of DMSO
Cc1cccc(C#Cc2ccccc2)n1	93.3 % of DMSO
OCc1ccc(-c2nn(Cc3ccccc3)c3ccccc23)o1	112 % of DMSO
O=C(NCCO[N+](=O)[O-])c1cccnc1	98.1 % of DMSO
CCN1CC(CCN2CCOCC2)C(c2ccccc2)(c2ccccc2)C1=O (centres unmarked)	92.7 % of DMSO and 100 % of DMSO
CCOc1ccc(NC(C)=O)cc1	102 % of DMSO
CCC1(c2ncc[nH]2)Cc2ccccc2O1 (centres unmarked)	98.2 % of DMSO
